Assay results from different studies.
Every numbered part comes from another study and shows a few of its results, in no order. In brackets after ≈: the same amount, converted by molar mass.
Sequence of UniProt P11388 (whole entry, looked up): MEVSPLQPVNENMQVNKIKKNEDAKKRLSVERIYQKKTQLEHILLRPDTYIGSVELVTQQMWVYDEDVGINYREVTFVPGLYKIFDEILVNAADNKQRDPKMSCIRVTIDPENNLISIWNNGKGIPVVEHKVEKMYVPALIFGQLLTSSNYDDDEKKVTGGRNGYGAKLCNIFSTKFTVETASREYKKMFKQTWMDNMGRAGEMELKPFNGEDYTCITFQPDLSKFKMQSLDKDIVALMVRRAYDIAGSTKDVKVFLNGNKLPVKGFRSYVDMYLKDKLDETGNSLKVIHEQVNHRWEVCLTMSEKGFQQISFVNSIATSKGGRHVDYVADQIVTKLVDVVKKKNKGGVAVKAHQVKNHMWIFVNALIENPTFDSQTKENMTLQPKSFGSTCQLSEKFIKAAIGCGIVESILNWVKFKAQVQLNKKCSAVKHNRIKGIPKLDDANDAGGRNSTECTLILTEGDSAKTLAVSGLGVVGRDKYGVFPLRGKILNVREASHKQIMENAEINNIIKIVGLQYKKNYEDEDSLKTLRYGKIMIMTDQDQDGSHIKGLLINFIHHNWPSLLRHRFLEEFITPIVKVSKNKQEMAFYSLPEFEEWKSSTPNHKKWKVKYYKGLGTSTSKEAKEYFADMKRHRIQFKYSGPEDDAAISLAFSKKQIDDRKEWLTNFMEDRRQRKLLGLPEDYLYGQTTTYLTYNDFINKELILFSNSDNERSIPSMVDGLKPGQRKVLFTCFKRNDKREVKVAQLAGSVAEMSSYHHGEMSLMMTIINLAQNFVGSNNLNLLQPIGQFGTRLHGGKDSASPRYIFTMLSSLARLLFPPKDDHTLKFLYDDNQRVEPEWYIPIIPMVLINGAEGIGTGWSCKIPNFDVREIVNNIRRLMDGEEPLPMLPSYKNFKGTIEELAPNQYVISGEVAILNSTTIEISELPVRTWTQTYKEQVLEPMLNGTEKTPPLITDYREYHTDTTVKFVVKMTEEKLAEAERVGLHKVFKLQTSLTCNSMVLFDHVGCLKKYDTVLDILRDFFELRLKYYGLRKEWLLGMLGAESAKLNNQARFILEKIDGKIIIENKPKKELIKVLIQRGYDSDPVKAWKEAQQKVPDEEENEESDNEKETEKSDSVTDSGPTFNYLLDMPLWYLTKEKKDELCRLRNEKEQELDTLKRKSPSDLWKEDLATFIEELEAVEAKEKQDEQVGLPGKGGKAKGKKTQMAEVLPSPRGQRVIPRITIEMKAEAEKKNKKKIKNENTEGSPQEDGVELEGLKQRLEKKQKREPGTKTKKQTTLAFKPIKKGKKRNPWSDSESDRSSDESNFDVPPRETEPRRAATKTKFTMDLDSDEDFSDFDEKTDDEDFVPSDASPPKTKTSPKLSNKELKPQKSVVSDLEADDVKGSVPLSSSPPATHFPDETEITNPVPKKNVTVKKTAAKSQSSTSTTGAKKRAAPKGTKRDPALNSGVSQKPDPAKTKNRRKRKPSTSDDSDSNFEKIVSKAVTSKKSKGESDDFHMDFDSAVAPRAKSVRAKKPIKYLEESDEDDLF

Sample 1
SMILES: CO/N=C(\C(=O)N[C@@H]1C(=O)N2C(C(=O)O)=C(COC(C)=O)CS[C@H]12)c1csc(N)n1
Organism: Pseudomonas aeruginosa
assay | test system | MIC
 | clinical isolate RKI-No_579/15 | > 16 µg/mL
broth microdilution | clinical isolate RKI-No 483/15-1 | 8 µg/mL (≈ 17.6 µM)
 | clinical isolate RKI-No_584/15 | > 16 µg/mL
 | clinical isolate RKI-No_484/15 | > 16 µg/mL
 | clinical isolate RKI-No_254/15 | > 16 µg/mL
 | clinical isolate RKI-No_496/15 | > 16 µg/mL

Further values, each from its own experiment
SMILES | tested on | assay | test system | conditions | scale | quantity | result
CCCc1nn(C)c2c(=O)[nH]c(-c3cc(S(=O)(=O)N4CCN(C)CC4)ccc3OCC)nc12 |  |  | human, plasma | oral, 100 mg, geometric mean, with: vericiguat |  | AUC(0-22) | 1390 ng·h/mL
Fc1ccccc1Cc1nc(-c2nc(C(F)(F)F)n[nH]2)cn2ccnc12 |  |  | healthy human subjects, both sexes | oral, 10 mg, fed |  | subjects with hepatic enzyme increased | 0%
CC1COc2ccccc2N1C(=O)C(Cl)Cl (stereo not shown) | glutathione S-transferase |  | female rhesus monkey liver cytosol | 5 µM, 30 min, pH 7.4, with: GSH |  | enantiomeric fraction | 0
COC(=O)Nc1c(N)nc(-c2nn(Cc3ccccc3F)c3ncc(F)cc23)nc1N |  |  | healthy male humans, plasma | oral, 1.25 mg single dose, phase I DDI study, alone |  | Cmax | 37.2 ng/mL
N#CCC1CCN(c2nc(Nc3ccc(N4CCC(O)CC4)cc3)c3c(=O)[nH]ncc3n2)CC1 |  | vs placebo, Olink multiplex | human, serum | 40 mg, day 15, unit not given | relative to: placebo | osteopontin level difference | -1.38
C[C@H]1O[C@@H](O[C@H]2[C@@H](O)C[C@H](O[C@H]3[C@@H](O)C[C@H](O[C@H]4CC[C@@]5(C)[C@H](CC[C@@H]6[C@@H]5C[C@@H](O)[C@]5(C)[C@@H](C7=CC(=O)OC7)CC[C@]65O)C4)O[C@@H]3C)O[C@@H]2C)C[C@H](O)[C@@H]1O |  |  | human, plasma | dose not given, geometric mean, with: vericiguat |  | Ctrough | 0.687 ng/mL
COc1cc([C@@H]2c3cc4c(cc3[C@@H](O[C@@H]3O[C@@H]5CO[C@@H](C)O[C@H]5[C@H](O)[C@H]3O)[C@H]3COC(=O)[C@H]23)OCO4)cc(OC)c1O | TOP2A (Homo sapiens, UniProt P11388) | DNA cleavage |  | 31.25 µM, replicate 1 |  | linear DNA | 15.6%

Some of these lines once more (sample 1):
assay | test system | MIC
 | clinical isolate RKI-No_254/15 | > 16 µg/mL
